Experimental data gathered from unrelated publications.
“And” joins repeats or separate records; there may be more than shown. ± gives the spread as reported.

SMILES = O=C(CN1CCN(CC(=O)NCc2ncccc2O)CCN(CC(=O)NCc2ncccc2O)CCN(CC(=O)NCc2ncccc2O)CC1)NCc1ncccc1O.[177Lu+3]; system = Sprague-Dawley rat, blood; conditions = intravenous (tail vein), dose not given, 2 h; measurement = tissue uptake; value = 0.071 ± 0.024 % injected dose/g
SMILES = O[C@@H]1[C@@H](O)[C@H](n2cc(COc3ccc(-c4nncnn4)cc3)nn2)O[C@H](C[18F])[C@H]1O; system = LS174T xenograft, BALB/c nude mouse, tumour; conditions = intravenous, 1 h, together with: CC49-TCO, Tz/TCO 1:1; measurement = tumour uptake; value = 1.9 ± 0.7 %ID/g
SMILES = COc1cccc(OC)c1-c1cc(C(=O)NC2(C(=O)O)C3CC4CC(C3)CC2C4)nn1-c1ccc(C(=O)N(C)CCOCCN(C)C(=O)[C@H](CCCCNC(=O)[C@H](CC(C)C)NC(=O)C2OC2C(=O)O)NC(=O)CN2CCN(CC(=O)[O-])CCN(CC(=O)[O-])CCN(CC(=O)[O-])CC2)cc1C(C)C.[177Lu+3] (mixture of isomers); system = mouse, HT-29 xenograft; conditions = 24 h post injection, biodistribution; scale = baseline: tumour over heart uptake; measurement = tumour-to-heart ratio; value = 7.53
SMILES = CCCC[C@H](NC(=O)CNC(=O)CNC(=O)[C@H](CCCCNC(=O)[C@H](CCN)NC(=O)C(C)c1ccc(CC(C)C)cc1)NC(=O)CN1CCN(CC(=O)O)CCN(CC(=O)O)CCN(CC(=O)O)CC1)C(=O)N[C@H]1CC(=O)NCCCC[C@@H](C(N)=O)NC(=O)[C@H](Cc2c[nH]c3ccccc23)NC(=O)[C@H](CCCNC(=N)N)NC(=O)[C@@H](Cc2ccccc2)NC(=O)[C@H](Cc2c[nH]cn2)NC1=O (stereo partly shown) [lutetium-177 labelled]; system = C57 mice, tumour; conditions = 2 h; scale = baseline: lung; measurement = tumour-to-tissue ratio; value = 15.9
SMILES = Cc1cccc(-c2cccc(C)n2)n1.[Cl-].[Cl-].[Ru+2].c1ccc(-c2ccccn2)nc1.c1ccc(-c2ccccn2)nc1; assay = C18 HPLC retention time; system = water; conditions = 100 µM; scale = baseline: standards of known log P; measurement = relative log P; value = 1.14
SMILES = C=CC(=O)Nc1cc(Nc2nccc(-c3cn(C)c4ccccc34)n2)c(OC)cc1N(C)CCNC; system = human, plasma; conditions = 72 h, -80 °C, high QC level; measurement = remaining compound; value = 91.9%
SMILES = CCCCCCCOc1ccc(CC[C@](N)(CO)COP(=O)(O)O)cc1C(F)(F)F; system = healthy male humans, plasma; conditions = 0.25 mg amiselimod, day 21, median; measurement = Tmax; value = 8.01 h
SMILES = CC(C)(F)CC(NC(c1ccc(-c2ccc(S(C)(=O)=O)cc2)cc1)C(F)(F)F)C(=O)NCC#CBr (stereo not shown); system = MES buffer; conditions = 100 µM, 23 h, pH 5.5, 37 °C, together with: cysteine 10 mM; measurement = cysteine adduct formation; value = < 1%
SMILES = CC[C@H](C)[C@@H]1NC(=O)[C@H](Cc2ccc(O)cc2)NC(=O)CCCSC[C@@H](C(=O)N(CC(=O)N[C@@H](CC(C)C)C(=O)NCC(N)=O)Cc2ccc(F)cc2)NC(=O)[C@H](CC(N)=O)NC(=O)[C@H](CCC(N)=O)NC1=O; system = human, plasma; conditions = intranasal, 50 µg single; measurement = tmax; value = 0.17 h
SMILES = Cc1cc(C)n(CCN(CCN)CCCCCCNC(=O)[C@@H](N)Cc2c[nH]cn2)n1.[99Tc+].[C-]#[O+].[C-]#[O+].[C-]#[O+]; system = BALB/c nude mice A549 xenograft; conditions = intravenous, 4 h; scale = baseline: tumour over muscle; measurement = tumour-to-tissue ratio; value = 9.1 and 9
SMILES = C=CC(=O)Nc1cc(Nc2nccc(-c3c[nH]c4ccccc34)n2)c(OC)cc1N(C)CCN(C)C; assay = storage stability; system = human dried blood spot; conditions = 2 h, -80 °C, HQC level; measurement = recovery; value = 107%
SMILES = [123I]c1ccc2nc(-c3ccc(-n4ccnn4)nc3)cn2c1; system = male Wistar rat, muscle; conditions = intravenous, 4 MBq, 6 h; measurement = tracer uptake; value = 0.024 %ID/g
SMILES = CC(=O)N[C@@H](Cc1ccccc1)C(=O)N[C@@H](CC(C)C)C(=O)NCC(=O)N[C@H](C(=O)N[C@@H](CC(C)C)C(=O)N[C@@H](C)C(=O)N[C@@H](CC(C)C)C(=O)N[C@@H](CC(C)C)C(=O)NCC(=O)N[C@@H](Cc1ccc(O)cc1)C(=O)N[C@@H](CC(C)C)C(=O)N[C@@H](C)C(=O)N[C@H](C(=O)N[C@@H](CCCNC(=N)N)C(=O)N1CCC[C@H]1C(=O)N[C@@H](Cc1ccccc1)C(=O)N[C@@H](CC(C)C)C(=O)N1CCC[C@H]1C(=O)N[C@@H](CCCCN)C(=O)N[C@@H](CCCCN)C(=O)N[C@@H](CCCCN)C(=O)N[C@@H](CCC(N)=O)C(=O)N[C@@H](CCC(N)=O)C(=O)N[C@@H](CCCCN)C(N)=O)C(C)C)C(C)C; assay = LC-MS; system = DOPC/DOPA vesicles with trypsin; conditions = 10 µM, 12 h, pH 7.2; measurement = cleaved to intact ratio; value = 2.5 ± 1
SMILES = NS(=O)(=O)c1c(F)c(F)c(S(=O)(=O)CCO)c(F)c1F; conditions = sulfonamide group; measurement = pKa; value = 7.28
SMILES = CC(C)(c1cc(Br)c(O)c(Br)c1)c1cc(Br)c(O)c(Br)c1; system = cow whole milk; conditions = 20 nM; scale = baseline: milk fat over skim milk; measurement = milk fat partition ratio; value = 22.1
SMILES = O=C(Nc1cnccc1-c1ccc([18F])cc1)c1ccnc(NC(=O)C2CC2)c1; system = mice, transgenic, GSK-3β, early-stage, muscle; conditions = intravenous, dose not given, 120 min; measurement = SUV; value = 0.09
SMILES = COCC1CN(C2CCN(c3cc(OC)c(Nc4ncc(Br)c(Nc5ccc6c(c5P(C)(C)=O)OCCO6)n4)cc3C)CC2)C1; assay = first-in-human trial; system = human; conditions = oral, 60 mg once daily; scale = treatment-related leading to permanent discontinuation; measurement = adverse events; value = 0%
SMILES = O=C(NS(=O)(=O)c1cccs1)c1cc2ccccc2n1Cc1ccc(Br)c2ccccc12; system = KM mouse, chronic hyperuricaemia model, serum; conditions = dose not given; measurement = AST; value = 110 U/L and 137 U/L and 150 U/L and 163 U/L and 151 U/L and 159 U/L
SMILES = CC(C)OCCOCc1ccc(OCC(O)CN(N=O)C(C)C)cc1 (stereo not shown); assay = duplex sequencing, measured: mutation frequency; system = NMRI mouse, bone marrow; conditions = oral, 284.5 mg/kg/day, 4 weeks; scale = baseline: vehicle; measurement = fold change; value = 1.96
SMILES = Cc1nn(-c2nc3c(F)cc(F)cc3s2)c(O)c1C(c1ccc(C(F)(F)F)cc1)c1c(C)nn(-c2nc3c(F)cc(F)cc3s2)c1O; system = ICR mouse, plasma; conditions = intraperitoneal, 10 mg/kg; measurement = MRT(0-inf) observed; value = 11.9 h and 7.44 h and 9.66 h
SMILES = CC(=O)N([O-])CCCCCNC(=O)CCC(=O)N([O-])CCCCCNC(=O)CCC(=O)N([O-])CCCCCN.[89Zr+4]; system = mouse, blood; conditions = 24 h; measurement = tracer uptake; value = 0.02 %ID/g
SMILES = C=C(NC(=O)c1csc(-c2nc3c(cc2O)-c2nc(cs2)C(=O)NC(C(C)O)C(=O)NC(=C(C)OC)c2nc(cs2)C(=O)NC2c4nc(cs4)C(=O)NC(COC(=O)c4c5c6c(cccc6n4O)COC(=O)C(OC4CC(C)(O)C(N(C)C)C(C)O4)C2OC5)c2nc-3cs2)n1)C(N)=O (stereo not shown); system = cynomolgus monkey, both sexes, plasma; conditions = intravenous infusion, 3 mg/kg single dose; measurement = clearance; value = 0.138 L/h/kg
SMILES = CN1CCC[C@]1(C)/C=C/S(=O)(=O)NC(=O)Nc1c2c(cc3c1CCC3O)CCC2 (stereo partly shown); system = human, plasma; conditions = oral, 12.5 mg twice daily of parent drug, day 14, metabolite of dosed drug; measurement = Tmax at first steady-state dose; value = 3 h
SMILES = C=Cc1c(C)c2cc3nc(c(CC(=O)OCCOCCOCCOC)c4[nH]c(cc5nc(cc1[nH]2)C(C)=C5CC)c(C)c4C(=O)O)[C@@H](CCC(=O)OCCOCCOCCOC)[C@@H]3C; assay = LC-MS; system = methanol-water 9:1; conditions = 5 min, pH 8.0; measurement = compound loss; value = 3%
SMILES = CCCCN1C(=O)c2cccc3c(NCCCCCCCCN4CCOCC4)ccc(c23)C1=O; system = DMSO; measurement = fluorescence quantum yield; value = 0.99
SMILES = CCc1cnc(NC(=O)c2cc(S(=O)(=O)N3CCOCC3)ccc2N(C)C2CCCC2)s1; system = mouse, serum; conditions = 10 mg/kg, 3 doses; measurement = GGT; value = 1 IU/L
SMILES = CC(C)[C@H](NC(=O)[C@H](Cc1c[nH]c2ccccc12)NC(=O)[C@H](CCCNC(=N)N)NC(=O)[C@H](CCCNC(=N)N)NC(=O)[C@@H](NC(=O)[C@@H](NC(=O)[C@H](CCCNC(=N)N)NC(=O)[C@@H](NC(=O)[C@@H](NC(=O)[C@H](CCCNC(=N)N)NC(=O)[C@H](CCCNC(=N)N)NC(=O)[C@@H](NC(=O)[C@H](Cc1c[nH]c2ccccc12)NC(=O)[C@H](CCCNC(=N)N)NC(=O)[C@H](CCCNC(=N)N)NC(=O)[C@@H](NC(=O)[C@H](CCCNC(=N)N)NC(=O)[C@H](CCCNC(=N)N)NC(=O)[C@@H](NC(=O)[C@H](Cc1c[nH]c2ccccc12)NC(=O)[C@H](CCCNC(=N)N)NC(=O)[C@@H](N)CCCNC(=N)N)C(C)C)C(C)C)C(C)C)C(C)C)C(C)C)C(C)C)C(C)C)C(=O)N[C@@H](CCCNC(=N)N)C(=O)N[C@@H](CCCNC(=N)N)C(=O)O; assay = dipstick; system = CD1 mouse, urine; conditions = intravenous, 15 mg/kg, 6 h, [14C]-labelled compound; measurement = urine pH; value = 5.5
SMILES = CNc1nc(N)nc2c1ncn2C1OC(COP(=O)(O)NC(C)C(=O)O)C(O)C1(C)F (stereo not shown); system = healthy adult humans, plasma; conditions = oral, 550 mg once daily, day 6, fasted, given alone; measurement = Cmax, geometric mean; value = 0.593 µg/mL

For quick reference, copied from above:
SMILES = COc1cccc(OC)c1-c1cc(C(=O)NC2(C(=O)O)C3CC4CC(C3)CC2C4)nn1-c1ccc(C(=O)N(C)CCOCCN(C)C(=O)[C@H](CCCCNC(=O)[C@H](CC(C)C)NC(=O)C2OC2C(=O)O)NC(=O)CN2CCN(CC(=O)[O-])CCN(CC(=O)[O-])CCN(CC(=O)[O-])CC2)cc1C(C)C.[177Lu+3] (mixture of isomers); system = mouse, HT-29 xenograft; conditions = 24 h post injection, biodistribution; scale = baseline: tumour over heart uptake; measurement = tumour-to-heart ratio; value = 7.53
SMILES = CCCC[C@H](NC(=O)CNC(=O)CNC(=O)[C@H](CCCCNC(=O)[C@H](CCN)NC(=O)C(C)c1ccc(CC(C)C)cc1)NC(=O)CN1CCN(CC(=O)O)CCN(CC(=O)O)CCN(CC(=O)O)CC1)C(=O)N[C@H]1CC(=O)NCCCC[C@@H](C(N)=O)NC(=O)[C@H](Cc2c[nH]c3ccccc23)NC(=O)[C@H](CCCNC(=N)N)NC(=O)[C@@H](Cc2ccccc2)NC(=O)[C@H](Cc2c[nH]cn2)NC1=O (stereo partly shown) [lutetium-177 labelled]; system = C57 mice, tumour; conditions = 2 h; scale = baseline: lung; measurement = tumour-to-tissue ratio; value = 15.9
SMILES = Cc1cccc(-c2cccc(C)n2)n1.[Cl-].[Cl-].[Ru+2].c1ccc(-c2ccccn2)nc1.c1ccc(-c2ccccn2)nc1; assay = C18 HPLC retention time; system = water; conditions = 100 µM; scale = baseline: standards of known log P; measurement = relative log P; value = 1.14
SMILES = C=CC(=O)Nc1cc(Nc2nccc(-c3cn(C)c4ccccc34)n2)c(OC)cc1N(C)CCNC; system = human, plasma; conditions = 72 h, -80 °C, high QC level; measurement = remaining compound; value = 91.9%
SMILES = CCCCCCCOc1ccc(CC[C@](N)(CO)COP(=O)(O)O)cc1C(F)(F)F; system = healthy male humans, plasma; conditions = 0.25 mg amiselimod, day 21, median; measurement = Tmax; value = 8.01 h
